# Published values gathered from unrelated publications.
# Each numbered part is a random draw from the data of one study; scales do not carry over between parts.

# Set 1
# Target: Sal-like protein 4, full length isoform A (SALL4, Homo sapiens, UniProt Q9UJQ4, residues 1-1053)
# Chain of UniProt Q9UJQ4 (whole entry, looked up): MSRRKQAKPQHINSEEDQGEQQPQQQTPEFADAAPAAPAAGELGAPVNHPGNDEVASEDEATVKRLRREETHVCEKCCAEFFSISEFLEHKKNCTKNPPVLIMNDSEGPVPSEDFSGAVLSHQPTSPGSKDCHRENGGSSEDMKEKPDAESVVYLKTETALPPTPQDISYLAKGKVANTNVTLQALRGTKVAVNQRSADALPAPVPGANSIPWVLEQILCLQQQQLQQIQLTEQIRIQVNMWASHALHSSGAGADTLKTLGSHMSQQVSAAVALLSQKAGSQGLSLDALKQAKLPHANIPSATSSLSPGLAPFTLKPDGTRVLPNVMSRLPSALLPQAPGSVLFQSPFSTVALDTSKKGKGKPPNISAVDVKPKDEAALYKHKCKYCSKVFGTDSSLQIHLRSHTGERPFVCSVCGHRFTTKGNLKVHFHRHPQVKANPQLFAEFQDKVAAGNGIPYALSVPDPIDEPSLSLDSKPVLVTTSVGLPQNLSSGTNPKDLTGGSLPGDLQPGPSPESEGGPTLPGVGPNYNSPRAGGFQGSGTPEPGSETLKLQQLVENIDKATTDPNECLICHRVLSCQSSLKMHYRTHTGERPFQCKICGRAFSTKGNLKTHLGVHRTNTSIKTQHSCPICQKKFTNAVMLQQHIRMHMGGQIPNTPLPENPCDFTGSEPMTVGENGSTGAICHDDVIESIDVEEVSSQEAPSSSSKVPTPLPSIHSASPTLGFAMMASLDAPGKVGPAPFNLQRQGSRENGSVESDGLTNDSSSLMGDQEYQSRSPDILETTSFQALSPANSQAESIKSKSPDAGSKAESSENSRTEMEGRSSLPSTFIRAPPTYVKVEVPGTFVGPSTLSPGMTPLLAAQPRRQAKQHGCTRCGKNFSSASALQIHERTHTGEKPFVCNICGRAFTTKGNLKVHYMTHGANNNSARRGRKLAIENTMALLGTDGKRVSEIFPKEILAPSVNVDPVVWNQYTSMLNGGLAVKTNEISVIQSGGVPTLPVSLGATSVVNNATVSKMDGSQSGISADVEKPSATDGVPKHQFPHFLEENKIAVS
# Technique: universal PBM
# Form: double-stranded DNA, one strand shown
# Matrix: in vitro
# Concentration: 600 nM
# Notes: 8-mer, flanks averaged, mean of replicates
# Direction: higher = stronger binding
Strand,E-score
AACGATCG,0.08
AAGGAGGT,-0.171
ATATCTGG,0.183

# Set 2
# Target: Histone acetyltransferase KAT6A, winged helix 1, GST fusion (KAT6A, Homo sapiens, UniProt Q92794, residues 1-85)
# Technique: protein binding microarray
# Form: double-stranded DNA, one strand shown
# Matrix: in vitro
# Concentration: not given
# Notes: 8-mer, flanks averaged, mean of 2 arrays, mostly near background
# Reference: not given
# Direction: higher = stronger binding
# Target sequence (chain): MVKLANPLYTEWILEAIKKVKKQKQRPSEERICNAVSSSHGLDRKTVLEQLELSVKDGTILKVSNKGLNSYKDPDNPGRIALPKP
Strand,E-score
GATCTGCC,-0.0881
ACATGTAA,-0.076
GTGAGTGA,-0.0963
AGGCTAAG,-0.104

# Set 3
# Target: Interferon regulatory factor 7, full length, phosphomimetic (IRF7, Homo sapiens, UniProt Q92985, residues 1-503, S101K/S471D/S472D/S475D/S476D/S477D/S483D/S484D/S487D)
# Chain of UniProt Q92985 (whole entry, unmodified, looked up): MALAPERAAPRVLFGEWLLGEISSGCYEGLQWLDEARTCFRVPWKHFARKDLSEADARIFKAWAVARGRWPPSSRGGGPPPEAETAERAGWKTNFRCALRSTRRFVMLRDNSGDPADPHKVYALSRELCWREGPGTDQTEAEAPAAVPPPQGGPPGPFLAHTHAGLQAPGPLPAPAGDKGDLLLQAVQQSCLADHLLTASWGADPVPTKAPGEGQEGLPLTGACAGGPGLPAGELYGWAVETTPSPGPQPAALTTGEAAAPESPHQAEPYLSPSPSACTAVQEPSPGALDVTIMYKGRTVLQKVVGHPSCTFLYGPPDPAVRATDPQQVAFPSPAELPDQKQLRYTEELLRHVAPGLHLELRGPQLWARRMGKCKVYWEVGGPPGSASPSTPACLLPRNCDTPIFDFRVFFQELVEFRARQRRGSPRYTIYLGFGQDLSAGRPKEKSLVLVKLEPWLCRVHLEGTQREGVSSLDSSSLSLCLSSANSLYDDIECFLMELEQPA
# Technique: protein-binding microarray
# Form: double-stranded DNA, one strand shown
# Matrix: in vitro
# Concentration: 250 nM
# Notes: 60-bp whole probe
# Added: salmon DNA 0.4 mg/ml
# Reference: random background probes
# Direction: higher = stronger binding
Strand,log fluorescence
GCCTAGCACAGGGGACTGACTCTTCAGCACGTGCTAGTCTTGATTCGCTTGACGCTGCTG,-0.82 z-score
GCCTAGCACTCAAATCTCAGCCTCCGACTGTGCTAGGTCTTGATTCGCTTGACGCTGCTG,-0.228 z-score
GCCTAGCACGACGGTTGCGGGTTTCGGGACGTGCTAGTCTTGATTCGCTTGACGCTGCTG,2.22 z-score

# Other studies, line by line
Substance,target,assay,test system,conditions,how to read,quantity,result
"PhoQ, residues 284 288 289 292 302 303 SLANIV","PhoP, residues 12 14 15 18 19 SGWQI (Escherichia coli, UniProt P23836)","Sort-seq, measured: YFP reporter",E. coli,"PhoQ-PhoP variant library, added: 10 µM Mg2+","reference: high Mg2+ state, higher = stronger signaling",fold induction,3.13
